Measurements of several laboratories.
± gives the spread as reported.
Mapk1: Mitogen-activated protein kinase 1 (Mapk1, Rattus norvegicus, UniProt P63086)
UniProt P63086, sequence (whole entry, looked up): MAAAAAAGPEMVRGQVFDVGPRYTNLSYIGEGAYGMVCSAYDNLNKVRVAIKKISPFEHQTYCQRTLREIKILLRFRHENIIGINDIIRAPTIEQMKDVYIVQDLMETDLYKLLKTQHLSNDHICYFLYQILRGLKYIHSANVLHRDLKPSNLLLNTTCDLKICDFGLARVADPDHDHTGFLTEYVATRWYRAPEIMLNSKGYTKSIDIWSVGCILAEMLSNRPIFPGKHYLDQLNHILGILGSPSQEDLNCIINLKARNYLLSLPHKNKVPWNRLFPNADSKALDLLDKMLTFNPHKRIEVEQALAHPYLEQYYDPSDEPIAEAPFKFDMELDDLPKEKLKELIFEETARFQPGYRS
CYP1A2: Cytochrome P450 1A2 (CYP1A2, Homo sapiens, UniProt P05177)
UniProt P05177, sequence (whole entry, looked up): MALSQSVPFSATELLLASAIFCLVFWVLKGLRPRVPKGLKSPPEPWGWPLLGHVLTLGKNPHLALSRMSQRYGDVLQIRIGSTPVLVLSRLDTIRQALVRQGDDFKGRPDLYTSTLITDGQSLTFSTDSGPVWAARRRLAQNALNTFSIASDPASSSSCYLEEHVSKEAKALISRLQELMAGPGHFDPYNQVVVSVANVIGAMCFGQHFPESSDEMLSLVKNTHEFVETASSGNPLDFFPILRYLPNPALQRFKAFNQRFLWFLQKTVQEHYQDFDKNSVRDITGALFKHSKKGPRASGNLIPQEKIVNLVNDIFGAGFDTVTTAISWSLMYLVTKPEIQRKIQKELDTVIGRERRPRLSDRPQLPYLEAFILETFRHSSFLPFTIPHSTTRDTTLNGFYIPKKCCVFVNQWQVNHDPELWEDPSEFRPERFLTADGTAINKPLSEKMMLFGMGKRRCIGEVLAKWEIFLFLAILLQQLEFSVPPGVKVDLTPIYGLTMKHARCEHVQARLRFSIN
UniProt Q8WWR8, sequence (whole entry, looked up): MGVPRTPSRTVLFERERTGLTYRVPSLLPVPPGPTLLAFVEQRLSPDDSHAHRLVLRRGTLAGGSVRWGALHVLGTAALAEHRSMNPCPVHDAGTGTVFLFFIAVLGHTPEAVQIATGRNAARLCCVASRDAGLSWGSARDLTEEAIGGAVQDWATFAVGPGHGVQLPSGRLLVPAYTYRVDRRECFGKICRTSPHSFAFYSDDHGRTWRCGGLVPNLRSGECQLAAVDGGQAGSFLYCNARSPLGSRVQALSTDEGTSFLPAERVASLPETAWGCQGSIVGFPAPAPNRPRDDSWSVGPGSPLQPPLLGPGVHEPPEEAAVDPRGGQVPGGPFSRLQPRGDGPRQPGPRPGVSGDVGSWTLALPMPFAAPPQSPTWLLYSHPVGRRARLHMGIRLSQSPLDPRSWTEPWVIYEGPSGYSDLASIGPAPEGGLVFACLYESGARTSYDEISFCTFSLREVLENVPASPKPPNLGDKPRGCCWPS
UniProt P00915, sequence (whole entry, looked up): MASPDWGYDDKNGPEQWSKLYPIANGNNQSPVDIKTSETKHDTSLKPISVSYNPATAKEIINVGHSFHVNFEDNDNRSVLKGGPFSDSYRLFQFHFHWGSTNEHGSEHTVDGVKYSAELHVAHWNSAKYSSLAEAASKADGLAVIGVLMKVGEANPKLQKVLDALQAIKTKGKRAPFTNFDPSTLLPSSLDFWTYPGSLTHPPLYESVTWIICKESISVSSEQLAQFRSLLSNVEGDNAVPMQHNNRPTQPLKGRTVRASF
UniProt P31645, sequence (whole entry, looked up): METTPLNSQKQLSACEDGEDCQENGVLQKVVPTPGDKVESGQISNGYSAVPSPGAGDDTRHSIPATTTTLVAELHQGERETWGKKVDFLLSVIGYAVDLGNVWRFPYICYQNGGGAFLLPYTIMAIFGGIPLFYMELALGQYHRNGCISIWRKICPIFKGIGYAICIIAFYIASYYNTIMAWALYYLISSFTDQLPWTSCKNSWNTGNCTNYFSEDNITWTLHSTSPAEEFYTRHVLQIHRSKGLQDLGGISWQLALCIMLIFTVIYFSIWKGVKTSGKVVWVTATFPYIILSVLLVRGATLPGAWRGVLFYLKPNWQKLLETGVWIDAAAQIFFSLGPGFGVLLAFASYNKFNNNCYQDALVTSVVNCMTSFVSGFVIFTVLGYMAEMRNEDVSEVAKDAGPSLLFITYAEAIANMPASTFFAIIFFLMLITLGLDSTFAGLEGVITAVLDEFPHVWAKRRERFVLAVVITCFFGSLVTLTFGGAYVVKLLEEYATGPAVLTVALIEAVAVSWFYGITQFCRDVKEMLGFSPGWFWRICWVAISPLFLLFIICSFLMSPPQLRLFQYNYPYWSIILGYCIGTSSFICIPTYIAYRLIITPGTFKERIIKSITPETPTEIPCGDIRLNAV
UniProt P02708, sequence (whole entry, looked up): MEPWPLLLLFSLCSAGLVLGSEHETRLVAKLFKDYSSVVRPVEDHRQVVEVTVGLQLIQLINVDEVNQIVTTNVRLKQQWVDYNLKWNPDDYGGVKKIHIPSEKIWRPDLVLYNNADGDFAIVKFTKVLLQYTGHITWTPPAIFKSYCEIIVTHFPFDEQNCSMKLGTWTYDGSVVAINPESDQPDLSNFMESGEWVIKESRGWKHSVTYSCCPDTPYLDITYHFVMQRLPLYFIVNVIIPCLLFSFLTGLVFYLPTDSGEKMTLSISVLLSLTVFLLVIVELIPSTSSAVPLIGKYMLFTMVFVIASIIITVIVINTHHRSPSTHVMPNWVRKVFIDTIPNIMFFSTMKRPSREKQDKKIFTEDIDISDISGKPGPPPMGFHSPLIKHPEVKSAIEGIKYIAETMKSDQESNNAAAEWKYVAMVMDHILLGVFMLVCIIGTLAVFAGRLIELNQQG
UniProt Q9GZQ4, sequence (whole entry, looked up): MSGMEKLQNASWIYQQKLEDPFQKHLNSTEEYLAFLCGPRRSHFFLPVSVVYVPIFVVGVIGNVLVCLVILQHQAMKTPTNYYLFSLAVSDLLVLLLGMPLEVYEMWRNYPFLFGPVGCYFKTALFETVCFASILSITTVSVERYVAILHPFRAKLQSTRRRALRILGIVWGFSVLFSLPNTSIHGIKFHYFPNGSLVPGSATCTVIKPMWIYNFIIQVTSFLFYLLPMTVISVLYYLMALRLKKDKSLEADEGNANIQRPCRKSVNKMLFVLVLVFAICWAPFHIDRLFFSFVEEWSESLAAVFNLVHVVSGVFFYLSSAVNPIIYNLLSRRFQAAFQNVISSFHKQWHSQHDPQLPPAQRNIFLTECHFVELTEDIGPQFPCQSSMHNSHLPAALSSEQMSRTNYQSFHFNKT
UniProt P42338, sequence (whole entry, looked up): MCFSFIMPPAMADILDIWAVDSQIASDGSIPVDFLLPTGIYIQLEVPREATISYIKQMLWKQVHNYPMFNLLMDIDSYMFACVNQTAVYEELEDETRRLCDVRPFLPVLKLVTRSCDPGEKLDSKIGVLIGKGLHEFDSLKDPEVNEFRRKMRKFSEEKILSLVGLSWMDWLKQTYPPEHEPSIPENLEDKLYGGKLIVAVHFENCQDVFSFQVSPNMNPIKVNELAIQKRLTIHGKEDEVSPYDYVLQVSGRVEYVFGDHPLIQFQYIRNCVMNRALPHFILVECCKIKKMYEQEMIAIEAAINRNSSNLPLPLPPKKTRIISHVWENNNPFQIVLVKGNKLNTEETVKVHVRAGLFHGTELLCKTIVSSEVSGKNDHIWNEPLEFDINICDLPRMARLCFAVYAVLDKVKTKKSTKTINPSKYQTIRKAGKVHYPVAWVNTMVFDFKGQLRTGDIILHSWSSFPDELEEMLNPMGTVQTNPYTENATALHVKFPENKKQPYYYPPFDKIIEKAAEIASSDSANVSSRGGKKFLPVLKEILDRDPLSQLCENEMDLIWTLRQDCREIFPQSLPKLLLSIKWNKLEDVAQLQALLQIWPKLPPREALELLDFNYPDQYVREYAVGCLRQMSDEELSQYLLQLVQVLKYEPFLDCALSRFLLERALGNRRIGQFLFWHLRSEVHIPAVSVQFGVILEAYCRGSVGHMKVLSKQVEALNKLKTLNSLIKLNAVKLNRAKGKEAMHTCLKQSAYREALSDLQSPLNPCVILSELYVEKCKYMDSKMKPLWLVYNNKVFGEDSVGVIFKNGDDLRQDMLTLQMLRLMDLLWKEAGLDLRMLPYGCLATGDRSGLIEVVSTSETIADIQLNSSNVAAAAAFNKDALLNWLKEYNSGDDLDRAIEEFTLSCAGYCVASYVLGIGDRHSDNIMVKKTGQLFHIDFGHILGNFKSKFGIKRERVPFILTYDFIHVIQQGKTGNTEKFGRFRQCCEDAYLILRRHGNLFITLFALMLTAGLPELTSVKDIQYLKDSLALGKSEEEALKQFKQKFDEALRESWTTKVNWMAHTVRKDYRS
UniProt Q07001, sequence (whole entry, looked up): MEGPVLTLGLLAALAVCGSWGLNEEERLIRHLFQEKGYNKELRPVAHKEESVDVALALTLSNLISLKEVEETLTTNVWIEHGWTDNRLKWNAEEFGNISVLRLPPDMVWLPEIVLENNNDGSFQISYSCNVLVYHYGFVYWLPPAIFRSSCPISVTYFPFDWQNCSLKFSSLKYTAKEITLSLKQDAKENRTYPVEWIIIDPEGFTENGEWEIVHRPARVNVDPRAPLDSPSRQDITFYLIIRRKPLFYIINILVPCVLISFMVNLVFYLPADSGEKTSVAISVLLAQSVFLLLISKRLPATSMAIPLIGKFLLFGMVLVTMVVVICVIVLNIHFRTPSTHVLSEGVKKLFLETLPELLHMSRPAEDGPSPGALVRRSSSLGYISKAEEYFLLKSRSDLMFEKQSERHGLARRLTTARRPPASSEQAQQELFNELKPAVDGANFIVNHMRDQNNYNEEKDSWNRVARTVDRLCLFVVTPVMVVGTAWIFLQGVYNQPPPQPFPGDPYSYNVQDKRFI

O=C(O)C1=C[C@H](O)[C@@H](NC(=O)c2ccc(-c3ccccc3)cc2)[C@H]([C@H](O)[C@H](O)CO)O1
IC50 (Sialidase-4 (Homo sapiens, UniProt Q8WWR8); enzyme activity, inhibitor): > 500 µM

O=S(=O)(N/N=C/c1ccc(OS(=O)(=O)c2ccc(Br)cc2)cc1)c1cc(Cl)ccc1Cl
IC50 (Carbonic anhydrase 1 (CA1, Homo sapiens, UniProt P00915); enzyme activity, inhibitor, absorbance): 0.237 µM

CCCCCCCCCCCCCCCCCC(=O)NC[C@H]1CC[C@H](C(=O)N[C@@H](CCC(=O)NCCCOCCOCCOCCCNC(=O)COCC(=O)N[C@@H](Cc2ccc(O)cc2)C(=O)NC(C)(Cc2ccccc2)C(=O)N[C@@H](CC(C)C)C(=O)N[C@@H](CCCC)C(=O)N[C@@H](CCCNC(=N)N)C(=O)N2CCC[C@H]2C(=O)N[C@@H](CCCNC(=N)NC)C(=O)N[C@@H](CC(N)=O)C(N)=O)C(=O)O)CC1 (stereo partly drawn)
IC50 (Neuromedin-U receptor 2 (NMUR2, Homo sapiens, UniProt Q9GZQ4); ligand displacement, radioligand; cell membranes): 0.00091 µM

CC[C@H](C)[C@H](NC(=O)[C@@H](NC(=O)[C@H](CC(C)C)NC(=O)[C@H](CCCCN)NC(=O)[C@H](CCCCN)NC(=O)[C@H](Cc1c[nH]cn1)NC(=O)[C@@H](NC(=O)[C@H](CCCNC(=N)N)NC(=O)[C@H](CCCCN)NC(=O)[C@H](CC(C)C)NC(=O)[C@H](CCC(N)=O)NC(=O)[C@H](CCCCN)NC(=O)[C@H](C)NC(=O)[C@@H](N)Cc1ccc(O)cc1)[C@@H](C)O)[C@@H](C)O)C(=O)N[C@@H](CC(N)=O)C(=O)N1CCC[C@H]1C(=O)O
IC50 (Mapk1; enzyme activity, inhibitor, fluorescence; pH 7.4): 68.2 µM

Clc1ccc2c(C3=CCN(CCCOc4ccccc4)CC3)c[nH]c2c1
IC50 (Sodium-dependent serotonin transporter (SLC6A4, Homo sapiens, UniProt P31645); ligand displacement, radioligand; cell membranes): 3.17 µM

CN(C)c1ncnc2c1ncn2[C@@H]1O[C@H](CCl)[C@@H](NC(=O)[C@H](N)CSC(c2ccccc2)c2ccccc2)[C@H]1O
IC50 (Puromycin-sensitive aminopeptidase (Homo sapiens, UniProt P55786); enzyme activity, inhibitor, fluorescence): 8.4 µM

Cc1ccc(N2CC3CC(C2)N3C)cc1C(=O)NC1(c2ccc3c4c(cccc24)C(=O)N3C)CC1
IC50 (CYP1A2; enzyme activity, inhibitor): > 50 µM

CCc1nnc(-c2c(OC)cc(-c3cnc4cc(-c5cnn(C)c5)ccn34)cc2OC)o1
IC50 (CYP1A2; enzyme activity, inhibitor): > 10 µM

CCN(N=Cc1cnc2ccc(Br)cn12)S(=O)(=O)c1cc([N+](=O)[O-])ccc1C
IC50 (Phosphatidylinositol 4,5-bisphosphate 3-kinase catalytic subunit beta isoform (PIK3CB, Homo sapiens, UniProt P42338); enzyme activity, inhibitor): 1.11 µM

O=C(O)CCn1c(=O)oc2cc(Cl)c(Cl)cc21
IC50 (CHRNA1/Acetylcholine receptor subunit delta (Homo sapiens, UniProt P02708+Q07001); ion current, blocker): > 50.1 µM

O=C1NC2(CC2)COc2ncc(F)cc2[C@H]2COCCN2c2ccn3ncc1c3n2
organ-to-body weight ratio (Sprague-Dawley rat, male, adrenals; oral, 5 mg/kg/day, 4 weeks dosing, end of recovery): 0.012 ± 0.001%

CC[C@H](C)[C@H](NC(=O)[C@H](Cc1ccc(O)cc1)NC(=O)[C@H](CC(C)C)NC(=O)[C@H](CCCNC(=N)N)NC(=O)[C@H](CCCCN)NC(=O)[C@@H](NC(=O)[C@H](CCCCN)NC(=O)[C@H](CCCCN)NC(=O)[C@H](CCCCN)NC(=O)[C@@H](NC(=O)[C@H](CCC(N)=O)NC(=O)[C@H](Cc1ccccc1)NC(=O)[C@H](C)NC(=O)[C@@H](N)Cc1ccc(O)cc1)[C@@H](C)CC)[C@@H](C)O)C(=O)N[C@@H](CC(N)=O)C(=O)N[C@@H](CCCCN)C(=O)O
IC50 (Mapk1; enzyme activity, inhibitor, fluorescence; pH 7.4): 84.4 µM

Some of these lines once more:
CCCCCCCCCCCCCCCCCC(=O)NC[C@H]1CC[C@H](C(=O)N[C@@H](CCC(=O)NCCCOCCOCCOCCCNC(=O)COCC(=O)N[C@@H](Cc2ccc(O)cc2)C(=O)NC(C)(Cc2ccccc2)C(=O)N[C@@H](CC(C)C)C(=O)N[C@@H](CCCC)C(=O)N[C@@H](CCCNC(=N)N)C(=O)N2CCC[C@H]2C(=O)N[C@@H](CCCNC(=N)NC)C(=O)N[C@@H](CC(N)=O)C(N)=O)C(=O)O)CC1 (stereo partly drawn)
IC50 (Neuromedin-U receptor 2 (NMUR2, Homo sapiens, UniProt Q9GZQ4); ligand displacement, radioligand; cell membranes): 0.00091 µM
